Published values of several laboratories.
Protocols differ between the studies behind these lines. Numbers after ± are the reported error.
ABCB1: ATP-dependent translocase ABCB1 (ABCB1, Homo sapiens, UniProt P08183)
Sequence of UniProt P10635 (whole entry, looked up): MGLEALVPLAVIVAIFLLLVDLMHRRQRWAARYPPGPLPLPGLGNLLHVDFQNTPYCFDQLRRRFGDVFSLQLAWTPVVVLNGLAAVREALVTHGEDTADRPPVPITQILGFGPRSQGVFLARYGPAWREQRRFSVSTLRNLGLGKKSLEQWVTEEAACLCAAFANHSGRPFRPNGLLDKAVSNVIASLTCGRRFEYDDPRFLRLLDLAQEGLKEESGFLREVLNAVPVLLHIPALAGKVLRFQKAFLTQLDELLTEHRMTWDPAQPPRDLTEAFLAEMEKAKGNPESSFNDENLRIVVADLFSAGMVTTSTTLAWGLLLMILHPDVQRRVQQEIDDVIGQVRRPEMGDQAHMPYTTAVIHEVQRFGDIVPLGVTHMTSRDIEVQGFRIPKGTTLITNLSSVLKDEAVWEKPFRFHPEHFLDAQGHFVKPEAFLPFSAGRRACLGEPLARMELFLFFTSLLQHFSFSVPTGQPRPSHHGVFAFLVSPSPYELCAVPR
Sequence of UniProt P05177 (whole entry, looked up): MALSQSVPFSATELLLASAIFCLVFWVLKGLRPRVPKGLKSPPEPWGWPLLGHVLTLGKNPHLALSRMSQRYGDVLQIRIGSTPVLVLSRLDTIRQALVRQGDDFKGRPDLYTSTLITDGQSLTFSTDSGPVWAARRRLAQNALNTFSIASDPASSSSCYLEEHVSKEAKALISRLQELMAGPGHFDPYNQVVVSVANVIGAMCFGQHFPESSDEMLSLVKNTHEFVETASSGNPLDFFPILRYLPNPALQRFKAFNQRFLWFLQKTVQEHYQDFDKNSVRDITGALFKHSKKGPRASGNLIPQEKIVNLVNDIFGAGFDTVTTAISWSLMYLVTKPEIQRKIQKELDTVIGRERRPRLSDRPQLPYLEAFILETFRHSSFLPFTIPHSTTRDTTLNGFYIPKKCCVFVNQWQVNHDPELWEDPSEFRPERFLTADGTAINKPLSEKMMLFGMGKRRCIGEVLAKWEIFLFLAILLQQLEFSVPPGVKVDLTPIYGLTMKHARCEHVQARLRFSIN
Sequence of UniProt P11509 (whole entry, looked up): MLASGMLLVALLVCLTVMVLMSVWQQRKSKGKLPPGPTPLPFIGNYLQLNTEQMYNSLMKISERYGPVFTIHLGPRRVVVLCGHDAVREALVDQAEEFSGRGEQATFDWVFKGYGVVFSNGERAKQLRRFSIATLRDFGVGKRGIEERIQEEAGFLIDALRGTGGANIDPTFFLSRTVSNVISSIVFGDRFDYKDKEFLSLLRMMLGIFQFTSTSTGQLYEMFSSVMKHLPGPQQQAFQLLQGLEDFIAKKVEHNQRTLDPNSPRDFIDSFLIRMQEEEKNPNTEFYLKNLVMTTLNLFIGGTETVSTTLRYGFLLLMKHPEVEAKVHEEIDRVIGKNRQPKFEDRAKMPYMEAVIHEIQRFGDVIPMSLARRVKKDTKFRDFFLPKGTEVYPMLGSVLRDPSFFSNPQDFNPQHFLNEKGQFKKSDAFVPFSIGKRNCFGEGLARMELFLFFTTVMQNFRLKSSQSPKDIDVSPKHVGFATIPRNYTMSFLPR
Sequence of UniProt Q14994 (whole entry, looked up): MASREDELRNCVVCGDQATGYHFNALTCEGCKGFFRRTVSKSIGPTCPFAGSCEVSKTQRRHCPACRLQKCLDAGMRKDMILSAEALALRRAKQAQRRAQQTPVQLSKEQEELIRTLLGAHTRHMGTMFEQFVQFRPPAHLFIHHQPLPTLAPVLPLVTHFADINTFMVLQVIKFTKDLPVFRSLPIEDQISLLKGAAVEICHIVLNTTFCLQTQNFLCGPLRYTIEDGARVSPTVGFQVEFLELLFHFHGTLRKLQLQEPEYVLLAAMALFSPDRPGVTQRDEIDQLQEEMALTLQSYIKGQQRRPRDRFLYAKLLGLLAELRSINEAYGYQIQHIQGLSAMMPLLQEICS

C=CC(=O)N1C[C@H](Nc2ncnc3[nH]ccc23)CC[C@@H]1C  Cmax ratio (CYP3A; human, plasma; oral, 30 mg, 5 days, together with: itraconazole 200 mg once daily; reference: with over without itraconazole): 102%
Cc1nc2cc(-c3cccc(Cl)c3)nn2c(N2CCN(C(=O)c3ccco3)CC2)c1C  IC50 (ABCB1; JC-1 efflux, inhibitor; Jurkat-DNR): 8.4 ± 0.7 µM
COc1c2ccoc2c(OC)c2oc(=O)ccc12  remaining activity (Cytochrome P450 1A2 (CYP1A2, Homo sapiens, UniProt P05177); recombinant microsomes; 8 µM, 8 min preincubation, before dialysis, together with: methoxyresorufin; reference: uninhibited enzyme): 18 ± 3%
NBD-C12 fatty acid  Kd (Albumin (ALB, Homo sapiens, UniProt P02768); binding, switchSENSE; 1% DMSO): 27.5 µM
Cc1ccc(-c2ncn(-c3ccc(Nc4nccc(-c5cccc(N6CCOCC6)c5)n4)cc3)n2)cn1  therapeutic window (NIH3T3 in PANC/NIH microtissues; fibroblast toxicity; chronic toxicity, unit not given; reference: AC50 ATP over AC50 NanoLUC, day 7): 5.64
C1CCC(C(CC2CCCCN2)C2CCCCC2)CC1 (stereo not shown)  mitochondrial membrane potential (Cytochrome P450 2D6 (CYP2D6, Homo sapiens, UniProt P10635); HepG2 overexpressing CYP2D6; concentration not given; reference: empty vector control): decreased
COc1ccc2[nH]c([S+]([O-])Cc3ncc(C)c(OC)c3C)nc2c1 (stereo not shown)  inhibition (mitochondrial cytochrome P450 rat; inhibitor; 100 µM, 60 min, pH 7.4): 68%
C#CCn1c(-c2ccccc2)cc2ccccc21  viability (HEK293; cell growth or viability; 50 µM): 105%
O=C(c1ccoc1)N1CCN(c2cc(-c3ccco3)nc3cc(-c4ccccc4)nn23)CC1  IC50 (ABCB1; JC-1 efflux, inhibitor; Jurkat-DNR): 4.65 ± 0.74 µM
CC(C)[C@H](NC(=O)[C@@H]1CCCN1C(=O)[C@H](CCCNC(=N)N)NC(=O)[C@H](CS)NC(=O)[C@H](Cc1c[nH]c2ccccc12)NC(=O)[C@H](CCCNC(=N)N)NC(=O)[C@@H](Cc1ccccc1)NC(=O)[C@H](Cc1c[nH]cn1)NC(=O)[C@H](CCC(=O)O)NC(=O)[C@H](CS)NC(=O)[C@H](CS)NC(=O)[C@H](CCCCN)NC(=O)[C@@H]1CC(=O)N[C@@H](CCCNC(=N)N)C(=O)N[C@@H](C)C(=O)N[C@@H](CC(=O)O)C(=O)N[C@H](Cc2ccc(O)cc2)C(=O)N1)C(N)=O [technetium-99m labelled]  tissue uptake (C57 mice, skin; intravenous, 0.037 MBq, 24 h): 0.26 ± 0.15 %ID/g
CCOC(=O)c1csc([C@@H](NC(=O)c2csc([C@@H](NC(=O)c3csc([C@@H](N)C(C)C)n3)C(C)C)n2)C(C)C)n1  inhibition (ABCB1; Bodipy-FL-prazosin efflux, flow cytometry; HeLa transduced with BacMam ABCB1; 10 µM, 45 min, 5% FBS; reference: 1 µM tariquidar): 67%
O=C(c1ccoc1)N1CCN(c2cc(-c3ccc(F)cc3)nc3cc(-c4cccc(Cl)c4)nn23)CC1  IC50 (ABCB1; JC-1 efflux, inhibitor; Jurkat-DNR): 5.65 ± 0.11 µM
CC(C)[C@H](NC(=O)OC(C)(C)C)c1nc(C(=O)N[C@H](c2nc(C(=O)N[C@H](c3nc(C(=O)O)cs3)C(C)C)cs2)C(C)C)cs1  inhibition (ABCB1; efflux transport, inhibitor, flow cytometry; HeLa, transduced with BacMam P-gp; 10 µM, 45 min, 5% FBS, together with: Bodipy-FL-prazosin; reference: tariquidar 1 µM): 10%
O=C(c1cccc(Cl)c1)N1CCN(c2cc(-c3ccccc3)nc3cc(-c4cccc(Cl)c4)nn23)CC1  IC50 (ABCB1; JC-1 efflux, inhibitor; Jurkat-DNR): 4.19 ± 1.88 µM
Cc1coc2c1CC[C@@H](C)C2  remaining activity (Cytochrome P450 2A6 (CYP2A6, Homo sapiens, UniProt P11509); coumarin 7-hydroxylation, inactivator; 20 µM, 10 min, pH 7.4, 30 °C, before spin column, together with: NADPH 1 mM; reference: no NADPH control): 8 ± 5%
Clc1ccc(-c2nc3sccn3c2CNCCc2ccc(Cl)c(Cl)c2)cc1  Emax (Nuclear receptor subfamily 1 group I member 3 (Homo sapiens, UniProt Q14994); reporter gene, agonist; HepG2-CYP2B6 cells; unit not given; reference: CITCO): 2.8

A few entries again:
O=C(c1ccoc1)N1CCN(c2cc(-c3ccco3)nc3cc(-c4ccccc4)nn23)CC1  IC50 (ABCB1; JC-1 efflux, inhibitor; Jurkat-DNR): 4.65 ± 0.74 µM
C=CC(=O)N1C[C@H](Nc2ncnc3[nH]ccc23)CC[C@@H]1C  Cmax ratio (CYP3A; human, plasma; oral, 30 mg, 5 days, together with: itraconazole 200 mg once daily; reference: with over without itraconazole): 102%
NBD-C12 fatty acid  Kd (Albumin (ALB, Homo sapiens, UniProt P02768); binding, switchSENSE; 1% DMSO): 27.5 µM
